Results of several laboratories.
Parts stem from different laboratories: compare values within a part only. Values joined by “and” are separate records of one study, mostly repeats; a detail may differ.

Study 1
SMILES: Cc1ccc(O)c(C)c1-c1cnc2[nH]c(-c3cnc(N4CCC(CN5CCN(c6ccc7c(c6F)CN(C6CCC(=O)NC6=O)C7=O)CC5)CC4)nc3)cc2c1C#N (stereo not shown)
Target: Membrane-associated tyrosine- and threonine-specific cdc2-inhibitory kinase (PKMYT1, Homo sapiens, UniProt Q99640)
Sequence of UniProt Q99640 (whole entry, looked up): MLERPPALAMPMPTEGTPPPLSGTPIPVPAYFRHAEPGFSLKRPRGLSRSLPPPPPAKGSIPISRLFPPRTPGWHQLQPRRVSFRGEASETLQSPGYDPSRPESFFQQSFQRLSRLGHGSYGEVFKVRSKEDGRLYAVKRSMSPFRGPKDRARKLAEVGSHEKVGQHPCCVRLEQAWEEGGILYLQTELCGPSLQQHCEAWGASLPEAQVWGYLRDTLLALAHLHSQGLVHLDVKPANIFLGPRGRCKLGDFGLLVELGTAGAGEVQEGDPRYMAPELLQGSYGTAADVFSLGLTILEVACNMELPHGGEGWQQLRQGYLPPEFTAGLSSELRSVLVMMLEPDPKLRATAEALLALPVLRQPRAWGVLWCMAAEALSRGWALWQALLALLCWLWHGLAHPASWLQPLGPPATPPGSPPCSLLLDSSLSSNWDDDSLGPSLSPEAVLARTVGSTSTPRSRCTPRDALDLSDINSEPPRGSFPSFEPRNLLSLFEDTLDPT
Quantity: inhibition
0.00046 µM: 2.51%
cell-free assay, inhibitor, TR-FRET; 51 pM: -10.6%
cell-free assay, inhibitor, TR-FRET; 1.37 nM: 10.5%
0.000152 µM: -5.38%
0.3333 µM: 99.3%
0.01235 µM: 85%
cell-free assay, inhibitor, TR-FRET; 1 µM: 98.7%
cell-free assay, inhibitor, TR-FRET; 37.04 nM: 95.8%
0.1111 µM: 99%
0.00412 µM: 46%
0.03704 µM: 96%
cell-free assay, inhibitor, TR-FRET; 4.12 nM: 44.7%

Study 2
Compound: CC(C)C[C@@H]1NC(=O)[C@@H](N(C)C(=O)[C@@H](NC(=O)[C@@H]2C[C@@H](F)CN2C(=O)C2(C(F)(F)F)CC(F)(F)C2)C2CC2)CCCCCCCN(C)C(=O)[C@H](Cc2cc(Cl)cnc2OC2CC2)N(C)C1=O
Host: mouse, sample A SCLC PDX
Route: oral
Dose: 100 mg/kg three times daily
Quantity: tumour volume
day 11: 131 mm3 and 179 mm3 and 160 mm3 and 263 mm3
day 4: 149 mm3 and 166 mm3 and 201 mm3 and 123 mm3
day 28: 395 mm3 and 248 mm3 and 300 mm3 and 426 mm3
day 14: 248 mm3 and 221 mm3 and 145 mm3 and 154 mm3 and 167 mm3

Study 3
Target: Cyclin-dependent kinase 12, with cyclin K (CDK12, Homo sapiens, UniProt Q9NYV4)
Sequence of UniProt Q9NYV4 (whole entry, looked up): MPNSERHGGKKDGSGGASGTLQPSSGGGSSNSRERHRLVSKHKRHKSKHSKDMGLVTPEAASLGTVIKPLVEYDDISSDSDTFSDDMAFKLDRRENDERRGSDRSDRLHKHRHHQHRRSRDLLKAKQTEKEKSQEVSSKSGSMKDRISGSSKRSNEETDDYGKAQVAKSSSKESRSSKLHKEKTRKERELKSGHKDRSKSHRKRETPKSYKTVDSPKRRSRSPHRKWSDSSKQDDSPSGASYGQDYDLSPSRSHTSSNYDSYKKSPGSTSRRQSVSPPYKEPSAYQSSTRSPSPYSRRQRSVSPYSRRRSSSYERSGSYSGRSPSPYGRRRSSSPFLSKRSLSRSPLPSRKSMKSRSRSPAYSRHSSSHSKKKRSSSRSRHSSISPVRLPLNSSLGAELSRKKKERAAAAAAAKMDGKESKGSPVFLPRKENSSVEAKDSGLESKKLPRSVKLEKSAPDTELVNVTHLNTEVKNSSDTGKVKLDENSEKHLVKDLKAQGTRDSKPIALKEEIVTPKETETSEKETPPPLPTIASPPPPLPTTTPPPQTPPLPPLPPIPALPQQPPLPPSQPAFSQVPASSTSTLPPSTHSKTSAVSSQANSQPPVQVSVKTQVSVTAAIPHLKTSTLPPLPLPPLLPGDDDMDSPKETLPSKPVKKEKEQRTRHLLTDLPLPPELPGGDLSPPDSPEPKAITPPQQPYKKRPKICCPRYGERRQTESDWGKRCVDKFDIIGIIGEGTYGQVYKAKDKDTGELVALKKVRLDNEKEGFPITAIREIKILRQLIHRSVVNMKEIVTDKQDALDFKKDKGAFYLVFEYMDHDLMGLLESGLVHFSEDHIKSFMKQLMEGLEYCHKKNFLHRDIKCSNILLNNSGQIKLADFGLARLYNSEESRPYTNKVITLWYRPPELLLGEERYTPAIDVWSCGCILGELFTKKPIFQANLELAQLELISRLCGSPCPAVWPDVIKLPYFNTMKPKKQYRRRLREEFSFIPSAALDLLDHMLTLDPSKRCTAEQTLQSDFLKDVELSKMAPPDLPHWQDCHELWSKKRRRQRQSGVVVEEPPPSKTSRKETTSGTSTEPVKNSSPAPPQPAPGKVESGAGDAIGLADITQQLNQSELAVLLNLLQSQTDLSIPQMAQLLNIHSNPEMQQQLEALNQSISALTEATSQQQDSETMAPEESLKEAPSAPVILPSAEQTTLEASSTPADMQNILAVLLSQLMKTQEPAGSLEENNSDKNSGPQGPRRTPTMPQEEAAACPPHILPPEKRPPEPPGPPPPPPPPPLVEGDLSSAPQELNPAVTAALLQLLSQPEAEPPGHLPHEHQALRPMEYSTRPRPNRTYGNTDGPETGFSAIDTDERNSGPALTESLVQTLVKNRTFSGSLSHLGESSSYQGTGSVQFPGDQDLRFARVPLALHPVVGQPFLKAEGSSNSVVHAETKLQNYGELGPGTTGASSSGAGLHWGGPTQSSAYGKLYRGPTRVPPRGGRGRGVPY
Effect on: kinase activity
Action: inhibitor
Technique: ADP-Glo
Concentration: 0.0247 µM
Quantity: inhibition
CCn1cnc2c(NCc3nc4cc(Cl)c(Cl)cc4[nH]3)nc(N3CCN(C(=O)c4cccnc4)CC3)nc21: 1.4%
CCn1cnc2c(NCc3nc4cc(Cl)c(Cl)cc4[nH]3)nc(N3CCN(C(=O)c4ccncc4)CC3)nc21: 28.4%
CCn1cnc2c(NCc3nc4cc(Cl)c(Cl)cc4[nH]3)nc(N3CCN(C(C)=O)CC3)nc21: 22%
CC(=O)N1CCN(c2nc(NCc3nc4cc(Cl)c(Cl)cc4[nH]3)c3ncn(-c4cnn(C)c4)c3n2)CC1: 8.8%
CCn1cnc2c(NCc3nc4cc(Cl)c(Cl)cc4[nH]3)nc(N3CCN(S(C)(=O)=O)CC3)nc21: 8.1%
CCn1cnc2c(NCc3nc4ccc(F)c(F)c4[nH]3)nc(N3CCn4ncnc4C3)nc21: 17.6%
CCn1cnc2c(NCc3nc4cc(Cl)c(Cl)cc4[nH]3)nc(N3CCN(c4ccccn4)CC3)nc21: 14.2%
Cn1cc(-n2cnc3c(NCc4nc5cc(Cl)c(Cl)cc5[nH]4)nc(N4CCNCC4)nc32)cn1: -6.4%
CCn1cnc2c(NCc3nc4cc(Cl)c(Cl)cc4[nH]3)nc(N3CCN(C(=O)c4ccccc4)CC3)nc21: 26.2%
CCn1cnc2c(NCc3nc4cc(Cl)c(Cl)cc4[nH]3)nc(N3CCN(C(=O)CNC(C)=O)CC3)nc21: 25.7%

Study 4
Compound: CCN1/C(=C/C=C2\CCCC(/C=C/C3=[N+](CC)c4ccccc4C3(C)C)=C2NCCCCCCCCN2CCC(Nc3nc4ccccc4n3Cc3ccc(F)cc3)CC2)C(C)(C)c2ccccc21
Cell line: U-87 MG
Concentration: concentration not given
Baseline: DMSO
Quantity: log2 fold change
refers to: RIN2 mRNA: -2.35
refers to: COL9A2 mRNA: -1.73
refers to: CALML4 mRNA: -1.61
refers to: ID3 mRNA: -2.25
refers to: ZNF530 mRNA: -0.996
refers to: GOLIM4 mRNA: -0.828
refers to: DARS2 mRNA: -0.827
refers to: SLC9A1 mRNA: 1.07
refers to: ANKFN1 mRNA: 2.97
refers to: GABRA3 mRNA: -1.93
refers to: TBC1D21 mRNA: -3.52

For quick reference, copied from above (study 3):
CCn1cnc2c(NCc3nc4cc(Cl)c(Cl)cc4[nH]3)nc(N3CCN(C(=O)c4ccccc4)CC3)nc21: 26.2%
CCn1cnc2c(NCc3nc4cc(Cl)c(Cl)cc4[nH]3)nc(N3CCN(C(=O)CNC(C)=O)CC3)nc21: 25.7%
